{"data": "Measured values collected from several papers", "note": "Every numbered part comes from another study and shows a few of its results, in no order. Values joined by “and” are separate records of one study, mostly repeats; a detail may differ.", "chain of UniProt P11362 (whole entry, looked up)": "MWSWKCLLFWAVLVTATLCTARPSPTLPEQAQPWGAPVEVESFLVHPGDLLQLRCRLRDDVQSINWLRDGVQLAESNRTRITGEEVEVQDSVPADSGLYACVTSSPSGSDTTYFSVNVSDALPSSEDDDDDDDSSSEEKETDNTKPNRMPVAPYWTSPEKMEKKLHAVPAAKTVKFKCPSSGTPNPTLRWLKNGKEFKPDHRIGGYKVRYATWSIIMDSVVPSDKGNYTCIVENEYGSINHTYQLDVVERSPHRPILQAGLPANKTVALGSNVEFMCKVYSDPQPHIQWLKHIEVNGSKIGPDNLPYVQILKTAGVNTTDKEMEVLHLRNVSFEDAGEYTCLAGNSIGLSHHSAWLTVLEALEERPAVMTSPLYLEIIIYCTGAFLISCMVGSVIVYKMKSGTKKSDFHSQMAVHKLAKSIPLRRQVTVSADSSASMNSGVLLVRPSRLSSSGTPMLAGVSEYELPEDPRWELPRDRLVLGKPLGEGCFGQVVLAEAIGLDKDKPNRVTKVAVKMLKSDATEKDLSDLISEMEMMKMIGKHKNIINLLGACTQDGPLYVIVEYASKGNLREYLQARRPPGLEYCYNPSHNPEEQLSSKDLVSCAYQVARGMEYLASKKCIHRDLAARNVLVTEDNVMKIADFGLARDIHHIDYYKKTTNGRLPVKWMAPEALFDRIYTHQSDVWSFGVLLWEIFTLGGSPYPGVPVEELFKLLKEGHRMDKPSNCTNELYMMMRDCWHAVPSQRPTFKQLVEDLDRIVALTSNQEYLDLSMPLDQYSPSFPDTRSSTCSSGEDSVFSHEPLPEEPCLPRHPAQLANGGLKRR", "chain of UniProt Q9Y6M4 (whole entry, looked up)": "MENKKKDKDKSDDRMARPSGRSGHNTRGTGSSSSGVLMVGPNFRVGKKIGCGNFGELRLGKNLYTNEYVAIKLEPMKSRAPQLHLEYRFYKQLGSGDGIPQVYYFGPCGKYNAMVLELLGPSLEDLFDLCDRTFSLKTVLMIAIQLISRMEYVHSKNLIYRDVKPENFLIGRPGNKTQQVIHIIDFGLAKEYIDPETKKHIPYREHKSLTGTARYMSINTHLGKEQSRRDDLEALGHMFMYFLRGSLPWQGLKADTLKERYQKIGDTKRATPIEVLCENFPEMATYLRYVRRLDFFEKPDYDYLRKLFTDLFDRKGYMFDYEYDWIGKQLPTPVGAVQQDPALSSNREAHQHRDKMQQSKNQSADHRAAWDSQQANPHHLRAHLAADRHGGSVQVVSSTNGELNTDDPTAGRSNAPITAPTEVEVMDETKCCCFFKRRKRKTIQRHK", "chain of UniProt P22607 (whole entry, looked up)": "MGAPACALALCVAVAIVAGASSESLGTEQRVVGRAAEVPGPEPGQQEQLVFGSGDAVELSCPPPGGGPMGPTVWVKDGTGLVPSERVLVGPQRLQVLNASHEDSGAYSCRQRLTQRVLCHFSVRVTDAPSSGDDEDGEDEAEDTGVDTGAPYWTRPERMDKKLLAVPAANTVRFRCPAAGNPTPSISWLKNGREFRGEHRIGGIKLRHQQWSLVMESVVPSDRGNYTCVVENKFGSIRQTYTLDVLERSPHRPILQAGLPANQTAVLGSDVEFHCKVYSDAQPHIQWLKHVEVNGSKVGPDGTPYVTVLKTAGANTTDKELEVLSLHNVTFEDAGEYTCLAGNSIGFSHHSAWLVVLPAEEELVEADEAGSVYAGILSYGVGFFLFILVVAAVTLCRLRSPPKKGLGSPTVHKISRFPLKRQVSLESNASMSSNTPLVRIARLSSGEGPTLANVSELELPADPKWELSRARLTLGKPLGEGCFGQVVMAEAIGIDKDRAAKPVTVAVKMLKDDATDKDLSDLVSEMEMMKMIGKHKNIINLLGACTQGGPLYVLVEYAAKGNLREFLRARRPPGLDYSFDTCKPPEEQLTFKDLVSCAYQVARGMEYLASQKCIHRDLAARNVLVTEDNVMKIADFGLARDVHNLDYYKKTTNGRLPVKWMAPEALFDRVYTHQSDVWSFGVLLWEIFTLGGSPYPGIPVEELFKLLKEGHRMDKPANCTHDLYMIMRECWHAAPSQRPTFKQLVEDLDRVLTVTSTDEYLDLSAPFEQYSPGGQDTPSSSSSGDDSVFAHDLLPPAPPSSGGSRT", "chain of UniProt Q8N752 (whole entry, looked up)": "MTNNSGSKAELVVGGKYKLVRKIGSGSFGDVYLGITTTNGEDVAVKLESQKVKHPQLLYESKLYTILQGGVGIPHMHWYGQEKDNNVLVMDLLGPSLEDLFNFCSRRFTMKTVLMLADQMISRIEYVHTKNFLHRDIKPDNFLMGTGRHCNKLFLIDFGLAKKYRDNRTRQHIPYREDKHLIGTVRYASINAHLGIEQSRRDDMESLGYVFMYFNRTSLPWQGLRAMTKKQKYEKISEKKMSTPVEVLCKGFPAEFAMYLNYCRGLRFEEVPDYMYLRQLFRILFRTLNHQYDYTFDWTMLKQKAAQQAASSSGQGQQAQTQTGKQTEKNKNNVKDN", "chain of UniProt Q52WX2 (whole entry, looked up)": "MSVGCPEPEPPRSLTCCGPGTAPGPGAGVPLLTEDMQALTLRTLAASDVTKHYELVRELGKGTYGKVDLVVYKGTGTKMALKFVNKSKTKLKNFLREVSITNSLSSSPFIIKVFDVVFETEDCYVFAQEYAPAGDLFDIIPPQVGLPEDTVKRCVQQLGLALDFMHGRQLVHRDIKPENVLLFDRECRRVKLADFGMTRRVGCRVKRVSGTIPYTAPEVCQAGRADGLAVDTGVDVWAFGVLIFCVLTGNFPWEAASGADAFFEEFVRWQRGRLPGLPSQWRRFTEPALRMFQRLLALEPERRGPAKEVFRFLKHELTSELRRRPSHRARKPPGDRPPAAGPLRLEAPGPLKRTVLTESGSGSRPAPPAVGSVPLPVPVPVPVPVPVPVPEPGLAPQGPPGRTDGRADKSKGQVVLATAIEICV", "chain of UniProt P42685 (whole entry, looked up)": "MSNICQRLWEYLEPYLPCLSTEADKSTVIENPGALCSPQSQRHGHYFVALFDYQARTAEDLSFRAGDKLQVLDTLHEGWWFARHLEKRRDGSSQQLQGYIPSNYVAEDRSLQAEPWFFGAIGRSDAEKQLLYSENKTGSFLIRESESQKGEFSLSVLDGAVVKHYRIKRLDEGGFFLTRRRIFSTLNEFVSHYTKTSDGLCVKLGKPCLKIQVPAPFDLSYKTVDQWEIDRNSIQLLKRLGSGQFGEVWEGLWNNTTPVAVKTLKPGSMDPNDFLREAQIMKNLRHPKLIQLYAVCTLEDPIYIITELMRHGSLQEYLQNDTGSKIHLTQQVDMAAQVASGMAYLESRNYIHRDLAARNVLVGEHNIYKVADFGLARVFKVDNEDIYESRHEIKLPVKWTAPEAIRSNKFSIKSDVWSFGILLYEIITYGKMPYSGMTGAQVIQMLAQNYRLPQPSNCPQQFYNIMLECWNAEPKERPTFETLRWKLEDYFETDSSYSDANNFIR"}
{"data": "Study 1", "target": "DDB1- and CUL4-associated factor 1 (DCAF1, Homo sapiens, UniProt Q9Y4B6)", "technique": "differential scanning fluorimetry", "concentration": "concentration not given", "notes": "unit not given", "relative to": "DCAF1 alone", "chain of UniProt Q9Y4B6 (whole entry, looked up)": "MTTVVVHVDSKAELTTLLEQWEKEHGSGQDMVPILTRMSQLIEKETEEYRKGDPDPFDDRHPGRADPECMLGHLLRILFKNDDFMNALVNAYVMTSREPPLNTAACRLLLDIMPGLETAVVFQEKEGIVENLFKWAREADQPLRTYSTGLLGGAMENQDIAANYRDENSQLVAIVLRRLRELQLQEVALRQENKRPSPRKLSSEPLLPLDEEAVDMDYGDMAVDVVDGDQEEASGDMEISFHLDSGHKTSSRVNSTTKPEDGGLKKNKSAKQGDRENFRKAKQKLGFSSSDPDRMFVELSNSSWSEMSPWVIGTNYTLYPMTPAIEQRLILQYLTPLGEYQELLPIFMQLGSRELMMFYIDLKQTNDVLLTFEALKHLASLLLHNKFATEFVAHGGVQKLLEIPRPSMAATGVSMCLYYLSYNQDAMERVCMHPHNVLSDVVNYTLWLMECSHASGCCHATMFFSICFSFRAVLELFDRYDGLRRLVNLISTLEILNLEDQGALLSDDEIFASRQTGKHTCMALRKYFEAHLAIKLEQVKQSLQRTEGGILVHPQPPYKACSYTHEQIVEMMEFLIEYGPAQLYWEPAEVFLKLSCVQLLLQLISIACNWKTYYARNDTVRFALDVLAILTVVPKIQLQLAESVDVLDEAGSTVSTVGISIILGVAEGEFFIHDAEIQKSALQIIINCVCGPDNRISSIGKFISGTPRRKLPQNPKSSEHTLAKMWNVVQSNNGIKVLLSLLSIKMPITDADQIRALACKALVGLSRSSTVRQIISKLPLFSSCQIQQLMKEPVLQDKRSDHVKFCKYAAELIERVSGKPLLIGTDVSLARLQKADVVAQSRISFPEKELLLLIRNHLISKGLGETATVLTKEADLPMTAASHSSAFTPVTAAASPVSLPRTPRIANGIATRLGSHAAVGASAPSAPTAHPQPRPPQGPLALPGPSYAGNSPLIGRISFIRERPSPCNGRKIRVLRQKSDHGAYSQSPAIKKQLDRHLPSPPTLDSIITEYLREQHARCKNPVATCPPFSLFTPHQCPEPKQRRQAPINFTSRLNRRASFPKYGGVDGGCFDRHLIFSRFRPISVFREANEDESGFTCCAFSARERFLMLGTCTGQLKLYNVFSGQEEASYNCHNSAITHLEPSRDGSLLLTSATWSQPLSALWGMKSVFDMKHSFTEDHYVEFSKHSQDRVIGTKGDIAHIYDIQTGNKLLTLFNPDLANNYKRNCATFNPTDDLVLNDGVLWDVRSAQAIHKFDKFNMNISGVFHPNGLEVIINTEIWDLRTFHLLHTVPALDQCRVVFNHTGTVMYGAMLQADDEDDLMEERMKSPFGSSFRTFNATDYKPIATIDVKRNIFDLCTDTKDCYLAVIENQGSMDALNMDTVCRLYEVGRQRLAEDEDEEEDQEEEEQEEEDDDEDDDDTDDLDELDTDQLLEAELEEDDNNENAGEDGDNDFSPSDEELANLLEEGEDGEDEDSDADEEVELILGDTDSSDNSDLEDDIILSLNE"}
{"SMILES": "C[C@@H]1CN(c2ccc(-c3cc(C(=O)NCCOCCOCCOCCOCCOCCOCCOCCOCCOCCNC(=O)/C=C/c4[nH]cc(C(=O)N[C@@H](CC(N)=O)c5ccc(F)c(Cl)c5)c4-c4ccc(Cl)cc4F)ccc3F)cc2NC(=O)c2c[nH]c(=O)cc2C(F)(F)F)C[C@H](C)N1C", "ΔTm": "5.28 and 5.67 and 5.27 and 5.19 and 5.06 and 5.51 and 5.12 and 5.57"}
{"SMILES": "C[C@@H]1CN(c2ccc(-c3cc(C(=O)NCCOCCOCCOCCOCCNC(=O)Cn4cc(-c5[nH]cc(C(=O)N[C@@H](CC(N)=O)c6ccc(F)c(Cl)c6)c5-c5ccc(Cl)cc5F)cn4)ccc3F)cc2NC(=O)c2c[nH]c(=O)cc2C(F)(F)F)C[C@H](C)N1C", "ΔTm": "8.03 and 7.89 and 8.37 and 7.52 and 7.82 and 8.43 and 8.51 and 7.68"}
{"SMILES": "C[C@@H]1CN(c2ccc(-c3cc(C(=O)NCCCNC(=O)/C=C/c4[nH]cc(C(=O)N[C@@H](CC(N)=O)c5ccc(F)c(Cl)c5)c4-c4ccc(Cl)cc4F)ccc3F)cc2NC(=O)c2c[nH]c(=O)cc2C(F)(F)F)C[C@H](C)N1C", "ΔTm": "11.9 and 11.6 and 12 and 11.4 and 11.7 and 12.1"}
{"data": "Study 2", "Structure (SMILES)": "CNC(=O)Nc1ccc2c(c1)[C@@]1(CC2)OC(=O)N(CC(=O)N(Cc2ccc(F)cc2)[C@@H](C)C(F)(F)F)C1=O", "observed": "cell-free assay", "technique": "competition with immobilised ligand", "concentration": "1 µM"}
{"target": "Serine/threonine-protein kinase SBK1 (SBK1, Homo sapiens, UniProt Q52WX2)", "remaining binding [%]": 75}
{"target": "Myosin light chain kinase 2, skeletal/cardiac muscle (MYLK2, Homo sapiens, UniProt Q9H1R3)", "remaining binding [%]": 77}
{"target": "Epidermal growth factor receptor (EGFR, Homo sapiens, UniProt P00533, T790M)", "remaining binding [%]": 73}
{"target": "Phosphatidylinositol 4,5-bisphosphate 3-kinase catalytic subunit alpha isoform (PIK3CA, Homo sapiens, UniProt P42336, Q546K)", "remaining binding [%]": 81}
{"target": "Mitogen-activated protein kinase kinase kinase 15 (MAP3K15, Homo sapiens, UniProt Q6ZN16)", "remaining binding [%]": 90}
{"target": "Fibroblast growth factor receptor 1 (FGFR1, Homo sapiens, UniProt P11362)", "remaining binding [%]": 84}
{"target": "Casein kinase I isoform alpha-like (CSNK1A1L, Homo sapiens, UniProt Q8N752)", "remaining binding [%]": 100}
{"target": "Mitogen-activated protein kinase kinase kinase 3 (MAP3K3, Homo sapiens, UniProt Q99759)", "remaining binding [%]": 75}
{"data": "Study 3", "species": "mouse", "sample": "microsomes or S9", "concentration": "2 µM", "time": "0.5 h"}
{"SMILES": "CCCc1nc(N(C)Cc2cc(-c3ccccc3)n[nH]2)c2cnn(C)c2n1", "remaining compound [%]": 6.61}
{"SMILES": "Cc1ccsc1CN(Cc1cn2ccccc2c1C#N)C(C)C", "remaining compound [%]": 57.9}
{"SMILES": "COc1ccc(-c2cc(-c3nc4c5ccccc5ncn4n3)n[nH]2)cc1", "remaining compound [%]": 21.2}
{"SMILES": "O=C1NC(=O)c2c1cc1ccccc1c2-c1ccccc1", "remaining compound [%]": 12.6}
{"SMILES": "COc1ccc(C(=O)N2C[C@@H](NC(=O)N(C)C)[C@H](C(C)C)C2)c(OC)n1", "remaining compound [%]": 66.4}
{"SMILES": "Clc1ccccc1/C=C/c1nc(-c2ccccn2)no1", "remaining compound [%]": 0.191}
{"SMILES": "CCCC(=O)N(Cc1cc2ccc(C)cc2[nH]c1=O)C(C)(C)C", "remaining compound [%]": 2.6}
{"SMILES": "CCC(=O)CC(=O)Nc1cccc(Cl)c1Cl", "remaining compound [%]": 18.4}
{"SMILES": "O=C(O)C1C(c2ccccc2)C(C(=O)O)C1c1ccccc1 (centres unmarked)", "remaining compound [%]": 65.9}
{"SMILES": "CC(C)CCN(C)c1ccc(C=Nn2cnnc2)cc1", "remaining compound [%]": 6.66}
{"SMILES": "Cn1c2c(c(=O)c3cc(Oc4ccccc4)ccc31)CCC2", "remaining compound [%]": 4.01}
{"SMILES": "COCc1nn2c(nnc3c(=O)n(NC(C)=O)ccc32)c1-c1ccc(F)cc1", "remaining compound [%]": 94.3}
{"SMILES": "Cc1cc(C)nc(N2CCN(c3ccccn3)CC2)n1", "remaining compound [%]": 0.0101}
{"data": "Study 4", "SMILES": "COc1cc2ncnc(Nc3ccc(OCc4ccccc4)cc3)c2cc1OC", "observed": "enzyme activity", "action": "inhibitor", "concentration": "0.5 µM", "relative to": "control"}
{"target": "Casein kinase I isoform gamma-3 (CSNK1G3, Homo sapiens, UniProt Q9Y6M4)", "remaining activity": "92.9%"}
{"target": "Fibroblast growth factor receptor 3 (FGFR3, Homo sapiens, UniProt P22607)", "remaining activity": "102%"}
{"target": "Serine/threonine-protein kinase TBK1 (TBK1, Homo sapiens, UniProt Q9UHD2)", "remaining activity": "101%"}
{"target": "Tyrosine-protein kinase JAK3 (JAK3, Homo sapiens, UniProt P52333)", "remaining activity": "108%"}
{"target": "Fibroblast growth factor receptor 1 (FGFR1, Homo sapiens, UniProt P11362)", "remaining activity": "91.3%"}
{"target": "Serine/threonine-protein kinase TAO2 (TAOK2, Homo sapiens, UniProt Q9UL54)", "remaining activity": "106%"}
{"target": "Mitogen-activated protein kinase kinase kinase 14 (MAP3K14, Homo sapiens, UniProt Q99558)", "remaining activity": "84.4%"}
{"target": "Serine/threonine-protein kinase ULK2 (ULK2, Homo sapiens, UniProt Q8IYT8)", "remaining activity": "97%"}
{"target": "Rhodopsin kinase GRK7 (GRK7, Homo sapiens, UniProt Q8WTQ7)", "remaining activity": "101%"}
{"target": "Serine/threonine-protein kinase Nek1 (NEK1, Homo sapiens, UniProt Q96PY6)", "remaining activity": "104%"}
{"target": "Tyrosine-protein kinase Mer (MERTK, Homo sapiens, UniProt Q12866)", "remaining activity": "19.5%"}
{"target": "Tyrosine-protein kinase Lck (LCK, Homo sapiens, UniProt P06239)", "remaining activity": "42.2%"}
{"target": "Macrophage-stimulating protein receptor (MST1R, Homo sapiens, UniProt Q04912)", "remaining activity": "106%"}
{"target": "Tyrosine-protein kinase FRK (FRK, Homo sapiens, UniProt P42685)", "remaining activity": "104%"}
{"note": "For quick reference, copied from above (study 4):"}
{"target": "Serine/threonine-protein kinase ULK2 (ULK2, Homo sapiens, UniProt Q8IYT8)", "remaining activity": "97%"}
{"target": "Tyrosine-protein kinase Mer (MERTK, Homo sapiens, UniProt Q12866)", "remaining activity": "19.5%"}
{"target": "Serine/threonine-protein kinase TBK1 (TBK1, Homo sapiens, UniProt Q9UHD2)", "remaining activity": "101%"}
{"target": "Tyrosine-protein kinase Lck (LCK, Homo sapiens, UniProt P06239)", "remaining activity": "42.2%"}
{"target": "Mitogen-activated protein kinase kinase kinase 14 (MAP3K14, Homo sapiens, UniProt Q99558)", "remaining activity": "84.4%"}
